Assay results from different studies.
Every numbered part comes from another study and shows a few of its results, in no order.

Study 1
Target: Histone acetyltransferase KAT6A, both winged helices, GST fusion (KAT6A, Homo sapiens, UniProt Q92794, residues 1-181)
Technique: protein binding microarray
Form: double-stranded DNA, one strand shown
Matrix: in vitro
Concentration: not given
Setting: 8-mer, flanks averaged, mean of 2 arrays, mostly near background
Reference: not given
Direction: higher = stronger binding
Construct (chain): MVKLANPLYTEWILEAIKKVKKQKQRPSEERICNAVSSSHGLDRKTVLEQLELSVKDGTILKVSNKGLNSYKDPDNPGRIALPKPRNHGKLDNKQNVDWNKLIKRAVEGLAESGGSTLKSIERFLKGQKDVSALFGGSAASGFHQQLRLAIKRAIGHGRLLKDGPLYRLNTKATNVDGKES
Sequence	E-score
CAAAGACA	-0.176
AACCCTTC	-0.0887
CGGTCAGA	0.055
AACAAGCT	-0.157
ATGTGAGA	-0.113
ATTTTCAG	-0.123
CTGATGGC	-0.0466
AAACTCTG	-0.101
GAGGGAAC	-0.0492
GATCGATC	0.157
CGACCCAA	-0.128
AAAACGTC	-0.0246
CCGTTTGA	0.213
ATAATGAC	0.064
CCACCGCG	0.258
CAGGCTTC	-0.0134
CATTTCCA	-0.133
ACGCTGTA	0.174
ACACGCTA	0.176
ATGGAACC	0.0329
CACGTAGA	-0.257

Study 2
Target: Sal-like protein 4, full length isoform B (SALL4, Homo sapiens, UniProt Q9UJQ4-2, residues 1-616)
Technique: universal PBM
Form: double-stranded DNA, one strand shown
Matrix: in vitro
Concentration: not given
Setting: 8-mer, flanks averaged, mean of replicates
Direction: higher = stronger binding
Residues (chain): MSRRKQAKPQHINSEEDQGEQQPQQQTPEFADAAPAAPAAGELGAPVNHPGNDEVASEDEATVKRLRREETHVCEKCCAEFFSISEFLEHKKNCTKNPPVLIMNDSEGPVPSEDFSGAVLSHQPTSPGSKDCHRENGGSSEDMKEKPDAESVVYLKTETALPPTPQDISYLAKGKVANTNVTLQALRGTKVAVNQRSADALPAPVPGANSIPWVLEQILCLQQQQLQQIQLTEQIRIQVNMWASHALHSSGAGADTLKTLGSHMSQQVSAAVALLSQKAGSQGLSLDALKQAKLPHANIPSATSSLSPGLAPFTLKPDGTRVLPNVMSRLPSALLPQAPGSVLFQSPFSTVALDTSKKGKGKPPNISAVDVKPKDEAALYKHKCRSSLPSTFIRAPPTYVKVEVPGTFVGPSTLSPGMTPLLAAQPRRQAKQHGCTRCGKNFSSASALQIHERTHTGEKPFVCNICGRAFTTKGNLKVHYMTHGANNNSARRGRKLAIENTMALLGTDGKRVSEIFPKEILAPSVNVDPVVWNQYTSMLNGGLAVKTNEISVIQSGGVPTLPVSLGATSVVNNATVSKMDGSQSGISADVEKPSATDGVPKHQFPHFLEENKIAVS
Sequence	E-score
CAGTTACA	0.148
CAGACTGA	-0.216
TTAGCAAA	0.133
TCTATGAA	0.28
GCTTAAGA	-0.101
GTTTTCCA	0.18
AACGGCCG	-0.198
GTACATAA	0.285
GGTATACC	-0.0975
GCGTGATA	0.046
GTGTCAAA	0.162
AGTCGCTA	-0.0341
AATCACGG	0.0857
CGTGGATC	-0.263
CGTCTGAG	-0.145
ACGCAAAT	0.0307

Study 3
Target: Prothrombin, mature alpha-thrombin (F2, Homo sapiens, UniProt P00734)
Technique: aptamer microarray, sandwich
Form: DNA with 2'F-ANA
Matrix: in vitro
Concentration: 200 nM
Setting: whole 15-mer aptamer, many near background
Together with: Cy3 exosite-II aptamer, 400 nM
Direction: higher = stronger binding
Sequence: GGTTGGTGTGGTTGG
Modification	mean fluorescence intensity [a.u.]
2'F-ANA at 1 3 6 7 10 12 13 14	59.1
2'F-ANA at 3 4 7 8 10 11 14	230
2'F-ANA at 1 3 4 5 6 7 9 12 13 14 15	51.1
2'F-ANA at 4 5 8 9 12	168
2'F-ANA at 2 8 9 12 13 14	170
2'F-ANA at 2 3 5 6 8 9 10 13 14	50
2'F-ANA at 1 5 7 10 12 14 15	110
2'F-ANA at 1 2 6 9 10 13 15	54.6
2'F-ANA at 9 11 13 14	193
2'F-ANA at 1 3 4 5 6 8 9 12 13	82
2'F-ANA at 3 4 8 9 11 12 13 14 15	284
2'F-ANA at 2 6 10 11 12 14 15	77.7
2'F-ANA at 2 5 9 12 13 14 15	67.5
2'F-ANA at 2 5 6 7 8 9 10 12 14 15	57.9
2'F-ANA at 1 2 6 10 14 15	51.3
2'F-ANA at 1 2 3 4 5 7 8 10 11 13	46.5
2'F-ANA at 1 3 4 5 15	58.7
2'F-ANA at 2 3 4 12	887
2'F-ANA at 1 2 3 5 6 9 11 14	45.3
2'F-ANA at 1 2 3 4 5 7 8 13 14	66
2'F-ANA at 1 3 7 8 12 13 15	655
2'F-ANA at 4 5 7 14	43
2'F-ANA at 1 3 8 13 15	477

Study 4
Target: Fragile X messenger ribonucleoprotein 1, C-terminal low-complexity region (Fmr1, Mus musculus, UniProt P35922)
Technique: RNA Bind-n-Seq
Form: RNA
Matrix: in vitro
Concentration: 200 nM
Setting: whole 134-nt RNA, ends assumed
Together with: 150 mM LiCl
Reference: input library
Direction: higher = stronger binding
Library: 7-deaza-guanosine replaces G
All sequences stand within: GGGAGUUCUACAGUCCGACGAUC … UGGAAUUCUCGGGUGUCAAGG
Sequence	log2 enrichment
UGGCCCUGCUGGCAUGCGGGGAGGAAGAGGUGGCCUCAUGGAUCGUGGUGGUCCCGGUGGAAUGUUCAGAGGUGGCCGUGGUGGAGACAG	0.0625
ACCAUGCAGUUGGGCAUCUUUGGGAAGUGGGGCAAGGGGGGGAUAGGGAGGGGGGUAACACUUUGGGAACAGGUGGUCCCAGGUCGUUUC	1.26
GUCCUGUGCUACACAUCGUAUGUACCGAAUCGGAAAAAAAGGAAAAAAAGGUUUUUGGAAAGUAUUAUGUUACGCCGUUCGGAUCUGCAC	-2.05
CCUGUGCUACACAUCGUAUGUACCGAAUCGGGGUUUUUGGGGUUUUUUUGGGGAAAGGGGAAAGUAUUAUGUUACGCCGUUCGGAUCUGC	0.127
GCAGGAAGUAAAAACAAAUGGAAAUGCUUCGGAUAGUGGCAGGGGUGGGGGUUGCUAAGGAAAUGGUGGGAUGGGAGUGGGUAAAGAGUU	1.39
CCUGUGCUACACAUCGUAUGUACCGAAUCGGGGUUUUUUUGGGGAGGGGAAAAAAAGGGGAAAGUAUUAUGUUACGCCGUUCGGAUCUGC	-0.637
UCAAGUCCUGUGCUACACAUCGUAUGUACCGAAUCGGAGGUUUUUUUGGAAAGGAAAGUAUUAUGUUACGCCGUUCGGAUCUGCACUUCC	-1.33
ACCAUGCAGGUGGGCAUCUUUGGGAAGUGGGUCAAGGGGGGGAUAGGGAGGGGGGUAACACUUUGGGAACAGGUGGUCCCAGGUCGUUUC	1.36

A few entries again (study 4):
Sequence	log2 enrichment
UGGCCCUGCUGGCAUGCGGGGAGGAAGAGGUGGCCUCAUGGAUCGUGGUGGUCCCGGUGGAAUGUUCAGAGGUGGCCGUGGUGGAGACAG	0.0625
ACCAUGCAGUUGGGCAUCUUUGGGAAGUGGGGCAAGGGGGGGAUAGGGAGGGGGGUAACACUUUGGGAACAGGUGGUCCCAGGUCGUUUC	1.26
GUCCUGUGCUACACAUCGUAUGUACCGAAUCGGAAAAAAAGGAAAAAAAGGUUUUUGGAAAGUAUUAUGUUACGCCGUUCGGAUCUGCAC	-2.05
CCUGUGCUACACAUCGUAUGUACCGAAUCGGGGUUUUUGGGGUUUUUUUGGGGAAAGGGGAAAGUAUUAUGUUACGCCGUUCGGAUCUGC	0.127
GCAGGAAGUAAAAACAAAUGGAAAUGCUUCGGAUAGUGGCAGGGGUGGGGGUUGCUAAGGAAAUGGUGGGAUGGGAGUGGGUAAAGAGUU	1.39
CCUGUGCUACACAUCGUAUGUACCGAAUCGGGGUUUUUUUGGGGAGGGGAAAAAAAGGGGAAAGUAUUAUGUUACGCCGUUCGGAUCUGC	-0.637
UCAAGUCCUGUGCUACACAUCGUAUGUACCGAAUCGGAGGUUUUUUUGGAAAGGAAAGUAUUAUGUUACGCCGUUCGGAUCUGCACUUCC	-1.33
ACCAUGCAGGUGGGCAUCUUUGGGAAGUGGGUCAAGGGGGGGAUAGGGAGGGGGGUAACACUUUGGGAACAGGUGGUCCCAGGUCGUUUC	1.36
